Results gathered from unrelated publications.
Lines come from different studies, so protocols differ. ± marks the error that the study gave.
USP51 ZnF-UBD domain: Ubiquitin carboxyl-terminal hydrolase 51, ZnF-UBD domain (USP51, Homo sapiens, UniProt Q70EK9)
UniProt Q70EK9, sequence (whole entry, looked up): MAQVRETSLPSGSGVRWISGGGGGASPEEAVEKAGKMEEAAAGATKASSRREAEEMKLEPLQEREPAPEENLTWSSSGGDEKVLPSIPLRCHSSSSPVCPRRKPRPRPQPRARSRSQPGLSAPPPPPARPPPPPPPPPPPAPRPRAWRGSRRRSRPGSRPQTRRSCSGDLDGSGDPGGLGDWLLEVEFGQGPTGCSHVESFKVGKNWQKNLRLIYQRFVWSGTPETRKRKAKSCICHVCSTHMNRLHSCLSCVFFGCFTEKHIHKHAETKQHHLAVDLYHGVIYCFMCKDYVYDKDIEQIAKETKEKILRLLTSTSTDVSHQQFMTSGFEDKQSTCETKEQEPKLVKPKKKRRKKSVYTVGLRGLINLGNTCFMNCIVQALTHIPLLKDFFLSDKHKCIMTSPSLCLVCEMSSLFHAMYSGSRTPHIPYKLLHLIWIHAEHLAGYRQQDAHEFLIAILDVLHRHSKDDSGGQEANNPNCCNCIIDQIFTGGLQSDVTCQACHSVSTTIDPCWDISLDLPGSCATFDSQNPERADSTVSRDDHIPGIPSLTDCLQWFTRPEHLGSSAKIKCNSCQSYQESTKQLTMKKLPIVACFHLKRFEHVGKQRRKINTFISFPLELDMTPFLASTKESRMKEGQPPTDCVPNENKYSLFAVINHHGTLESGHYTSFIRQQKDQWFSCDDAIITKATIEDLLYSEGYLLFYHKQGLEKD
Kir3.1/Kir3.2: Kir3.1/Kir3.2 (Homo sapiens, UniProt P48051+P48549)
UniProt P48549, sequence (whole entry, looked up): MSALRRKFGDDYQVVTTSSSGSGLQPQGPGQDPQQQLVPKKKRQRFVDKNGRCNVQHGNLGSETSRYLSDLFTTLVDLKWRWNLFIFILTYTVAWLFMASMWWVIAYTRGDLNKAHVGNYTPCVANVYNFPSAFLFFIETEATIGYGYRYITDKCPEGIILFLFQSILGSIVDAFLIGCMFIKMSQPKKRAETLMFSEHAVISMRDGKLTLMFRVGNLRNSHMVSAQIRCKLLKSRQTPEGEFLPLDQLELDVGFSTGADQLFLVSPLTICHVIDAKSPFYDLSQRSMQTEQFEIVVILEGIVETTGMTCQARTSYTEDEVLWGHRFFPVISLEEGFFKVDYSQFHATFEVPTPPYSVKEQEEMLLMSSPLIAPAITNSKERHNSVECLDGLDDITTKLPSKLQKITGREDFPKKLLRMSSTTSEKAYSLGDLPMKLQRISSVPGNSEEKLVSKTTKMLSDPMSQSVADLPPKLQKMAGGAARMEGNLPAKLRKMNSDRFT
UniProt P48051, sequence (whole entry, looked up): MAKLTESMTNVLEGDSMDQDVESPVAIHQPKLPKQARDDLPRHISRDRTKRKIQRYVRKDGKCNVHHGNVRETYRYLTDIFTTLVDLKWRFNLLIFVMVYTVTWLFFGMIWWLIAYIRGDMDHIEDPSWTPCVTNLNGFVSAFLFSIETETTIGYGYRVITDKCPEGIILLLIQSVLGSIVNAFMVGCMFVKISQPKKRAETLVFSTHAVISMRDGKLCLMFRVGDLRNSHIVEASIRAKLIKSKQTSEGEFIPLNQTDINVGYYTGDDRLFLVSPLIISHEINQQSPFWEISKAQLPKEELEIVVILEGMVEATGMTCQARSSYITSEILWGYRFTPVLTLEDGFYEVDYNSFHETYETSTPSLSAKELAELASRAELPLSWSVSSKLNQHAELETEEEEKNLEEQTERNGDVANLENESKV
GAP50: Glideosome-associated protein 50 (GAP50, Plasmodium falciparum, UniProt Q8I2X3)
UniProt Q8I2X3, sequence (whole entry, looked up): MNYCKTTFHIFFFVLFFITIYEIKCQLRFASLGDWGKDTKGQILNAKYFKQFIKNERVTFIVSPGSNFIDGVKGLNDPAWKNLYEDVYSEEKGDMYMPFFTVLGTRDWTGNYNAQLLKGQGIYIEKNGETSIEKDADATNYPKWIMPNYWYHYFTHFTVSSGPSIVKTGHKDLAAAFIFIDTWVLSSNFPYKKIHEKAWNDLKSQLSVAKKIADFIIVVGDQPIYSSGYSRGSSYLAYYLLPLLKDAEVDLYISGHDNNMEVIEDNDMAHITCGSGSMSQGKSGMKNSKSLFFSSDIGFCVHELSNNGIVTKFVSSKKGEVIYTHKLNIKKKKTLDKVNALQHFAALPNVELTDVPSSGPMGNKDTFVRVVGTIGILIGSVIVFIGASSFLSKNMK
CDK9: Cyclin-dependent kinase 9 (CDK9, Homo sapiens, UniProt P50750)
UniProt P50750, sequence (whole entry, looked up): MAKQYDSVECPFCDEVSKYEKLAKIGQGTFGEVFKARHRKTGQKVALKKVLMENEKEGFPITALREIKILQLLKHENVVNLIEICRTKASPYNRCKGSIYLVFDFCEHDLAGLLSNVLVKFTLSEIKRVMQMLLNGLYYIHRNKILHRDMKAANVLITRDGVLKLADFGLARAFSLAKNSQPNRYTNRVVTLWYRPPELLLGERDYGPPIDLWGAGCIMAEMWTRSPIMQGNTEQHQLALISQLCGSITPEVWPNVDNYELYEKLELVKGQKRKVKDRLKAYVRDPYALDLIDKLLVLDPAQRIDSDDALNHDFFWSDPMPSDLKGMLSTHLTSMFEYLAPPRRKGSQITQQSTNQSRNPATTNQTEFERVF
UniProt P10636, sequence (whole entry, looked up): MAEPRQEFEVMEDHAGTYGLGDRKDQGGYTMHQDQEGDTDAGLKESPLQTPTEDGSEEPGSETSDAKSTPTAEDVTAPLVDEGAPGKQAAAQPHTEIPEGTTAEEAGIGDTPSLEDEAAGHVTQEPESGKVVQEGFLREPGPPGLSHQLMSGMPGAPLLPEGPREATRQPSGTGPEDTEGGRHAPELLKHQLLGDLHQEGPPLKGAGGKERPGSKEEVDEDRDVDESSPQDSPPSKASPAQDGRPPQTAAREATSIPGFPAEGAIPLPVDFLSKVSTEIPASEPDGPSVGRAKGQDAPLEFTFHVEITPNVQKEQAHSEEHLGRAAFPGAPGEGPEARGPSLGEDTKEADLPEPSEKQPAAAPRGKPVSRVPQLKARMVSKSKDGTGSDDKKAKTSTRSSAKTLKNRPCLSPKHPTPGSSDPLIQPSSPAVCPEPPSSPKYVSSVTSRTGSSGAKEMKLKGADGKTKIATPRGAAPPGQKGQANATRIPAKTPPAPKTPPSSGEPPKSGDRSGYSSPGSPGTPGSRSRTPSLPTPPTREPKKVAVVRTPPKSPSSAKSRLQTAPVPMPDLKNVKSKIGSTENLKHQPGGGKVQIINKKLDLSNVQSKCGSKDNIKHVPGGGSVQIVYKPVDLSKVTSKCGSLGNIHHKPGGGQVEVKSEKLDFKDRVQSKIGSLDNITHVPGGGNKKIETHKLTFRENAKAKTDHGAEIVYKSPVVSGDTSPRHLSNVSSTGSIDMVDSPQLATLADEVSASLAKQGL
UniProt Q16584, sequence (whole entry, looked up): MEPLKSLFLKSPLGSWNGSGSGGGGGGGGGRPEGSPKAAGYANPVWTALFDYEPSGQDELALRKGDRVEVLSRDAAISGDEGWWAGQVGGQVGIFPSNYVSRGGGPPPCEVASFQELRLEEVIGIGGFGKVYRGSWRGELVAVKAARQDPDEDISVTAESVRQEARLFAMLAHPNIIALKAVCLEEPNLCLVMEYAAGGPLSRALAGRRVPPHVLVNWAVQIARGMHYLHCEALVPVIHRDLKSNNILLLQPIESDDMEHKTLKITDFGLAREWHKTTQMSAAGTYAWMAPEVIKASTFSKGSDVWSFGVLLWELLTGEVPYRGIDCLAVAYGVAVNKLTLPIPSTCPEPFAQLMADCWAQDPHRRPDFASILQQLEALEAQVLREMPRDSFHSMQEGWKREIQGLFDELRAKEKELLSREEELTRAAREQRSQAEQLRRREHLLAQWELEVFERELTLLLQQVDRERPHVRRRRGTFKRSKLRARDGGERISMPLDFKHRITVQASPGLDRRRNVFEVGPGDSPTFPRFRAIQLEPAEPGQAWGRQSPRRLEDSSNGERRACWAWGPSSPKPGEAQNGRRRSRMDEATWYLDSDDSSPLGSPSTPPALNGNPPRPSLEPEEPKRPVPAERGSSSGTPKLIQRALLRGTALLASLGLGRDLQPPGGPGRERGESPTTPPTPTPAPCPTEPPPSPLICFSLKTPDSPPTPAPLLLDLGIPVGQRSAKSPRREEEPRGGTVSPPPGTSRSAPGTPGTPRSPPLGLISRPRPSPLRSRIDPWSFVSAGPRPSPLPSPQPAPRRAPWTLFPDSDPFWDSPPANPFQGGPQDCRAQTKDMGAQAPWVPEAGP
UniProt Q8IU85, sequence (whole entry, looked up): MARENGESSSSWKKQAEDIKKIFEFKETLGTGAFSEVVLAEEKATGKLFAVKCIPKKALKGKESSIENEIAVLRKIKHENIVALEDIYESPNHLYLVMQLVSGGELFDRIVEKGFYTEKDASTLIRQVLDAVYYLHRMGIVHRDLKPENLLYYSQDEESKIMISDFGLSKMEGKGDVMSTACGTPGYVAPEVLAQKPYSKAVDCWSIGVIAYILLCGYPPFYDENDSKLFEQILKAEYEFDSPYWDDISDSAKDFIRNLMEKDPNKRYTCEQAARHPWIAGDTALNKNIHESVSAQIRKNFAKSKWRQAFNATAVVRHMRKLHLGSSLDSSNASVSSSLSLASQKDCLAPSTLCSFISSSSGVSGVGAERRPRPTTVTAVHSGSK
UniProt P15407, sequence (whole entry, looked up): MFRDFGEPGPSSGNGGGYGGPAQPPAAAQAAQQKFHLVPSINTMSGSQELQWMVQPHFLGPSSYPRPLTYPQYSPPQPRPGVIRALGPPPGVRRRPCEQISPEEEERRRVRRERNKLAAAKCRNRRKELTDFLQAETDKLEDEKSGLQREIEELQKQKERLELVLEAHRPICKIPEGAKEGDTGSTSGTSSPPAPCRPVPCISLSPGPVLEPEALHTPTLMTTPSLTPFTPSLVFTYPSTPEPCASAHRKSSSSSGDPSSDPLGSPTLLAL
UniProt P05412, sequence (whole entry, looked up): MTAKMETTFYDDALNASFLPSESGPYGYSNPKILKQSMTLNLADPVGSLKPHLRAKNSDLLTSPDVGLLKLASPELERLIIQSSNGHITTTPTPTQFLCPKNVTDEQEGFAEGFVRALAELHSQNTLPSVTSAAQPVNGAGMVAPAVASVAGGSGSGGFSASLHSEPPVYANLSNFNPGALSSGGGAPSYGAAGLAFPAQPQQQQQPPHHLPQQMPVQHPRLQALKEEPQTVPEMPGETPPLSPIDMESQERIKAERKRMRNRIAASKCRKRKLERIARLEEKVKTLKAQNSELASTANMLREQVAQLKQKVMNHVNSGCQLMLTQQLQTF

Compound = Cn1cc(-c2ccc(-c3cncc(Cl)c3N3CCC4(CCNC4=O)CC3)cc2)cn1; tested on = COLO 205; assay = gene expression, microarray, refers to: DUSP6 mRNA; setting = concentration not given, 2 h; how to read = reference: untreated cells; measurement = log2 fold change; value = 2.98
Compound = CC1=C(C=O)C(C)(C)CCC1; tested on = uncharacterized protein (Drosophila suzukii, UniProt A0AB39ZCT4); assay = binding, bis-ANS competition fluorescence; setting = pH 7.4, added: bis-ANS; measurement = IC50; value = > 50 µM
Compound = O=C(O)CNc1ncnc2ccccc12; tested on = USP51 ZnF-UBD domain; measurement = Kd; value = > 1000 µM
Compound = CC[C@@H]1[C@H](F)C(=O)N[C@@H]1COc1nccc2cc(C(N)=O)c(OC)cc12; tested on = CAMK1D (Homo sapiens, UniProt Q8IU85); assay = ATP-site probe binding, ActivX profiling; test system = THP-1 cell lysate; setting = Lys2 site; measurement = IC50; value = > 5 µM
Compound = Cc1cc(NC(=O)C2CCc3ccccc3O2)n(C2CCS(=O)(=O)C2)n1 (stereo not drawn); tested on = Kir3.1/Kir3.2; assay = activator, thallium flux; test system = HEK293; measurement = EC50; value = > 10 µM
Compound = CCCCCCCC/C=C\CCCCCCCCCCCCC; tested on = uncharacterized protein (Drosophila suzukii, UniProt A0AB39ZCT4); assay = binding, bis-ANS competition fluorescence; setting = pH 7.4, added: bis-ANS; measurement = IC50; value = > 50 µM
Compound = COc1c(Nc2cc(C(F)(F)F)cc(C(F)(F)F)c2)c(=O)c1=O; tested on = CD209 antigen (CD209, Homo sapiens, UniProt Q9NNX6); assay = binding, grating-coupled interferometry; test system = Man(α1,2)Man-PEG3 chip; setting = 2 h, no Tris; measurement = EC50; value = 144 µM
Compound = CC(C)CCN1C(=O)C(C2=NS(=O)(=O)c3cc(NS(C)(=O)=O)ccc3N2)=C(O)[C@@H]2[C@H]3CC[C@H](C3)[C@@H]21; tested on = GAP50; assay = binding, surface plasmon resonance; setting = 1:1 binding model; measurement = Kd; value = 17.6 µM
Compound = O=C(COc1cc(Cl)ccc1Cl)Nc1cc(C2CCC2)nn1CC(F)(F)F; tested on = Kir3.1/Kir3.2; assay = activator, thallium flux; test system = HEK293; measurement = EC50; value = > 10 µM
Compound = C=CC(C)=CCC=C(C)C; tested on = uncharacterized protein (Bradysia odoriphaga, UniProt A0A2S0X9G4); assay = binding, competitive fluorescence displacement; measurement = Ki; value = > 50 µM
Compound = c1ccc(Oc2ccc(-c3cc(C4CCOCC4)[nH]n3)cc2)cc1; tested on = GAP50; assay = binding, surface plasmon resonance; setting = 1:1 binding model; measurement = Kd; value = 14.3 µM
Compound = CC(C)(C)c1cnc(CSc2cnc(NC(=O)C3CCN(C(=O)CCCCN4Cc5cc6c(cc5C4)C(=O)N(C4CCC(=O)NC4=O)C6=O)CC3)s2)o1 (stereo not drawn); tested on = CDK9; assay = degrader, Western blot; test system = TC-71; measurement = DC50; value = 0.0112 ± 0.0049 µM
Compound = COc1ccc2nc(/N=N/c3ccc(N(C)C)cc3)sc2c1; tested on = Microtubule-associated protein tau, fibrils (MAPT, Homo sapiens, UniProt P10636); assay = thioflavin S displacement, fluorescence; test system = synthetic 2N4R tau filaments; setting = added: thioflavin S; measurement = AC50; value = 0.031 ± 0.006 µM
Compound = CC[N+]1(C/C2=C/CCCCCC2)CCC(NC(=O)C2c3cc(Cl)ccc3Oc3ccc(Cl)cc32)CC1 (stereo not drawn); tested on = GAP50; assay = binding, surface plasmon resonance; setting = 1:1 binding model; measurement = Kd; value = 12 µM
Compound = O=C(O)CN1Cc2ccccc2C1=O; tested on = USP51 ZnF-UBD domain; measurement = Kd; value = > 1000 µM
Compound = C/C1=C\CC/C(C)=C/CC(C)(C)/C=C/C1; tested on = uncharacterized protein (Bradysia odoriphaga, UniProt A0A2S0X9G4); assay = binding, competitive fluorescence displacement; measurement = Ki; value = > 50 µM
Compound = CCc1cc(NC(=O)COc2cccc(Cl)c2Cl)n(CC(F)(F)F)n1; tested on = Kir3.1/Kir3.2; assay = activator, thallium flux; test system = HEK293; measurement = EC50; value = 0.603 µM
Compound = COc1ccc(/C=C/c2ccc(/C=C/c3ccc(OC)c(C(=O)O)c3)c(I)c2)cc1C(=O)O; tested on = Microtubule-associated protein tau, paired helical filaments (MAPT, Homo sapiens, UniProt P10636); assay = binding; test system = authentic PHF 1 µM; setting = added: thioflavin S; measurement = AC50; value = > 10 µM
Compound = N#Cc1c2n(c3c(=O)n(CC(=O)O)cnc13)CCCC2; tested on = USP51 ZnF-UBD domain; measurement = Kd; value = > 1000 µM
Compound = Cc1cc(NC(=O)C2CCc3cc(Cl)ccc3O2)n(C2CCS(=O)(=O)C2)n1 (stereo not drawn); tested on = Kir3.1/Kir3.2; assay = activator, thallium flux; test system = HEK293; measurement = EC50; value = 3.68 µM
Compound = Oc1cccc(C(Nc2nccs2)c2ccc3cccnc3c2O)c1 (stereo not drawn); tested on = GAP50; assay = binding, surface plasmon resonance; setting = 1:1 binding model; measurement = Kd; value = 5.77 µM
Compound = O=C(O)CCc1cn2cccnc2n1; tested on = USP51 ZnF-UBD domain; measurement = Kd; value = > 1000 µM
Compound = O=C(Nc1nnc(-c2ccc(Cl)s2)o1)c1ccc(Cl)s1; tested on = GAP50; assay = binding, surface plasmon resonance; setting = 1:1 binding model; measurement = Kd; value = 63.2 µM
Compound = CCCCCCCC(=O)OCC; tested on = uncharacterized protein (Drosophila suzukii, UniProt A0AB39ZGK5); assay = binding, bis-ANS competition fluorescence; setting = pH 7.4, added: bis-ANS; measurement = IC50; value = > 50 µM
Compound = CN1CCN(c2ccc(Nc3ncc4cc(C#N)c(=O)n(C5CCCC5)c4n3)cc2)CC1; tested on = MAP3K11 (Homo sapiens, UniProt Q16584); measurement = IC50; value = 0.133 µM
Compound = O=C(C=Cc1cc(C(=O)c2ccc(OC3CCCC3)cc2O)ccc1OCc1ccc2c(O)noc2c1)NCCOCCOCCOCCOCCOCCOCCOCCNc1cccc2c1C(=O)N(C1CCC(=O)NC1=O)C2=O (stereo not drawn); tested on = JUN/FOSL1 (Homo sapiens, UniProt P05412+P15407); assay = degrader, western blot; test system = UMSCC1 cells; measurement = DC50; value = 2.3 µM
Compound = O=C(COc1ccc(C(F)(F)F)cc1C(F)(F)F)Nc1cc(C2CC2)nn1C1CCC(F)(F)CC1; tested on = Kir3.1/Kir3.2; assay = activator, thallium flux; test system = HEK293; measurement = EC50; value = 1.51 µM
Compound = CSc1nc(C)c(CCC(=O)O)c(=O)[nH]1; tested on = USP51 ZnF-UBD domain; measurement = Kd; value = > 1000 µM
Compound = CCCCCCCCC; tested on = uncharacterized protein (Bradysia odoriphaga, UniProt A0A2S0X9G4); assay = binding, competitive fluorescence displacement; measurement = Ki; value = > 50 µM
Compound = O=C(O)CCn1cccn1; tested on = USP51 ZnF-UBD domain; measurement = Kd; value = > 1000 µM
Compound = CN(CCCCCCNC(=O)COc1ccc(C2CCC(=O)NC2=O)cc1)Cc1cn(Cc2ccc(C(=O)NO)cc2)c2ccccc12 (stereo not drawn); tested on = HDAC10 (Homo sapiens, UniProt Q969S8); assay = degrader, western blot; test system = MM1.S cells; setting = 24 h; measurement = DC50; value = 0.0079 ± 0.0033 µM
Compound = CC(C)(C)c1cnc(CSc2cnc(NC(=O)C3CCN(C(=O)CCCCCCN4Cc5cc6c(cc5C4)C(=O)N(C4CCC(=O)NC4=O)C6=O)CC3)s2)o1 (stereo not drawn); tested on = CDK9; assay = degrader, Western blot; test system = RH5 rhabdomyosarcoma; setting = 6 h; measurement = DC50; value = < 0.01 µM
Compound = CCCCC[C@H](O)/C=C/[C@H]1[C@H](O)CC(=O)[C@@H]1C/C=C\CCCC(=O)O; tested on = PTGER1 (Homo sapiens, UniProt P34995, F334L/G92T); assay = IP1 accumulation, agonist; test system = AD293; measurement = EC50; value = 0.00815 µM
Compound = CC(C)(C)c1cnc(CSc2cnc(NC(=O)C3CCN(C(=O)CCCCCCCN4Cc5cc6c(cc5C4)C(=O)N(C4CCC(=O)NC4=O)C6=O)CC3)s2)o1 (stereo not drawn); tested on = CDK9; assay = degrader, Western blot; test system = TC-71; measurement = DC50; value = 0.0035 ± 0.0007 µM
Compound = O=C(COc1ccc(C(F)(F)F)cc1C(F)(F)F)Nc1cc(C2CCC2)nn1C1CCOCC1; tested on = Kir3.1/Kir3.2; assay = activator, thallium flux; test system = HEK293; measurement = EC50; value = 9.2 µM
Compound = O=C(Nc1ccccc1-c1nc2c(C(=O)O)cccc2o1)c1ccccc1; tested on = GAP50; assay = binding, surface plasmon resonance; setting = 1:1 binding model; measurement = Kd; value = 7.75 µM

Repeated from above:
Compound = COc1c(Nc2cc(C(F)(F)F)cc(C(F)(F)F)c2)c(=O)c1=O; tested on = CD209 antigen (CD209, Homo sapiens, UniProt Q9NNX6); assay = binding, grating-coupled interferometry; test system = Man(α1,2)Man-PEG3 chip; setting = 2 h, no Tris; measurement = EC50; value = 144 µM
Compound = CC(C)CCN1C(=O)C(C2=NS(=O)(=O)c3cc(NS(C)(=O)=O)ccc3N2)=C(O)[C@@H]2[C@H]3CC[C@H](C3)[C@@H]21; tested on = GAP50; assay = binding, surface plasmon resonance; setting = 1:1 binding model; measurement = Kd; value = 17.6 µM
Compound = O=C(COc1cc(Cl)ccc1Cl)Nc1cc(C2CCC2)nn1CC(F)(F)F; tested on = Kir3.1/Kir3.2; assay = activator, thallium flux; test system = HEK293; measurement = EC50; value = > 10 µM
Compound = C=CC(C)=CCC=C(C)C; tested on = uncharacterized protein (Bradysia odoriphaga, UniProt A0A2S0X9G4); assay = binding, competitive fluorescence displacement; measurement = Ki; value = > 50 µM
